Measured values pooled from the literature.
Protocols differ between the studies behind these lines. Several values in a cell are separate wells, animals, samples, runs or records.
HTR2C: 5-hydroxytryptamine receptor 2C (HTR2C, Homo sapiens, UniProt P28335)
SLC6A4: Sodium-dependent serotonin transporter (SLC6A4, Homo sapiens, UniProt P31645)
Oprk1: Kappa-type opioid receptor (Oprk1, Mus musculus, UniProt P33534)

`NC(=O)c1cccnc1` has a Ki of > 10000 µM (Halyomorpha halys Nan-Iav Y325A; [3H]-AP competition binding).
For `COc1ccc(OC)c(CCNCc2ccccc2OC)c1`, the Ki was 0.0164 µM and 0.016 to 0.019 µM (HTR2C; ligand displacement, radioligand).
With `CCCC(C(=O)c1ccc2c(c1)OCO2)N(C)C` (centres unmarked) the Ki was 2.27 µM (SLC6A4; ligand displacement, radioligand; cell membranes).
With `N#Cc1cc(C(=O)N[C@@H]2CC[C@@]3(O)[C@H]4Cc5cccc6c5[C@@]3(CCN4CC3CC3)[C@H]2O6)ccn1` the Ki was 0.00613 µM (Oprk1; ligand displacement, radioligand; cell membranes).
`CNC(C)C(=O)c1cccc(C)c1` (centres unmarked) has a Ki of 7.9 µM (SLC6A4; ligand displacement, radioligand; cell membranes).
`O=C(N[C@@H]1CC[C@@]2(O)[C@H]3Cc4cccc5c4[C@@]2(CCN3CC2CC2)[C@H]1O5)c1ccnc(Br)c1` gave a Ki of 0.00744 µM (Oprk1; ligand displacement, radioligand; cell membranes).
`CCC(=O)Nc1c(OC[C@H](O)[C@H](O)[C@H](O)CO)[nH]c(=O)[nH]c1=O` has a Ki of > 1000 µM (ribH (Mycobacterium tuberculosis, UniProt P9WHE9); inhibitor; pH 7.0, added: substrate 1 varied, other substrate 2 constant).
`Cc1cc(C(=O)N[C@@H]2CC[C@@]3(O)[C@H]4Cc5cccc6c5[C@@]3(CCN4CC3CC3)[C@H]2O6)ccn1` gave a Ki of 0.0961 µM (Oprk1; ligand displacement, radioligand; cell membranes).
`CCCC(NC)C(=O)c1ccc(Cl)cc1` (centres unmarked) has a Ki of 3.85 µM (SLC6A4; ligand displacement, radioligand; cell membranes).
For `CN[C@@](C)(C[18F])C(=O)O`, the tracer uptake was 1.5 %ID/g (DU-145 tumour model; host not given, lung; 2 h, tumour-bearing).
For `CC(C)=CCN1CCC2(C)c3cc(O)ccc3CC1C2C` (centres unmarked), the Ki was > 1 µM (Pde10a (Rattus norvegicus, UniProt Q9QYJ6); ligand displacement, radioligand; cell membranes).
For `CCN(C(=O)[C@@H]1C=C2c3cccc4[nH]cc(c34)C[C@H]2N(C)C1)C1CC1`, the Ki was > 10 µM (ADRB1 (Homo sapiens, UniProt P08588)).
For `O=C(N[C@@H]1CC[C@@]2(O)[C@H]3Cc4cccc5c4[C@@]2(CCN3CC2CC2)[C@H]1O5)c1ccnc(Cl)c1`, the Ki was 0.0105 µM (Oprk1; ligand displacement, radioligand; cell membranes).
`COc1cc(CC(C)N)c(OC)cc1I` (racemic) has a Ki of 0.27 µM (Htr2a (Mus musculus, UniProt P35363); [3H]ketanserin competition binding; mouse striatum membranes; added: quinpirole 10 µM and raclopride).
The Ki of `O=C(c1cccc2ccccc12)c1cn(CCCCCF)c2ccccc12` is reported as 3.29 µM (Tspo (Rattus norvegicus, UniProt P16257); binding).
`COc1cc(C(=O)N[C@@H]2CC[C@@]3(O)[C@H]4Cc5cccc6c5[C@@]3(CCN4CC3CC3)[C@H]2O6)ccn1` has a Ki of 0.0869 µM (Oprk1; ligand displacement, radioligand; cell membranes).
For `COc1cc([N+](=O)[O-])c(OC)cc1CCNCc1ccccc1OC`, the Ki was ~0.001 µM and 0.00106 µM (HTR2C; ligand displacement, radioligand).
